# Measured values gathered from unrelated publications.
# Lines come from different studies, so protocols differ. Numbers after ± are the reported error.
# Mapk1: Mitogen-activated protein kinase 1 (Mapk1, Rattus norvegicus, UniProt P63086)
# Sequence of UniProt P63086 (whole entry, looked up): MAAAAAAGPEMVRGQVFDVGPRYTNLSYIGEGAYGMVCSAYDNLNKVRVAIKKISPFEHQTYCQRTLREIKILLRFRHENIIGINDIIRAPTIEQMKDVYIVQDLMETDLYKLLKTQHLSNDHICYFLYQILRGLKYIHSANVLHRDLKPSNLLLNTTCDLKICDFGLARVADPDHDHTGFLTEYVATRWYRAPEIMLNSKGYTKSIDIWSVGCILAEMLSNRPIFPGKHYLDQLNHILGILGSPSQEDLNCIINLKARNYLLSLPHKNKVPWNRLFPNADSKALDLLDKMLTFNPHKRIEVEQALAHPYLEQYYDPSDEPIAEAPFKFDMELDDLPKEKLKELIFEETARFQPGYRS
# Sequence of UniProt P00784 (whole entry, looked up): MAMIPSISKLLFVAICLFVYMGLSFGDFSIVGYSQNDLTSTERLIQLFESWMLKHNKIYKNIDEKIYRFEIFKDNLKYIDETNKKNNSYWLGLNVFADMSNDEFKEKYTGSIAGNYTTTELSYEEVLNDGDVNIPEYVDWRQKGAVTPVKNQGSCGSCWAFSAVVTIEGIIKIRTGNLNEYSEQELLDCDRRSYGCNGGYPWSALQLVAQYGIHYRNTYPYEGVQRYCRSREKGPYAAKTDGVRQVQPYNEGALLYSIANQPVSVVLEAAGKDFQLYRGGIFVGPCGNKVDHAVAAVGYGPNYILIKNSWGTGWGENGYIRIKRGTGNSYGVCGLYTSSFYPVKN
# Sequence of UniProt P47117 (whole entry, looked up): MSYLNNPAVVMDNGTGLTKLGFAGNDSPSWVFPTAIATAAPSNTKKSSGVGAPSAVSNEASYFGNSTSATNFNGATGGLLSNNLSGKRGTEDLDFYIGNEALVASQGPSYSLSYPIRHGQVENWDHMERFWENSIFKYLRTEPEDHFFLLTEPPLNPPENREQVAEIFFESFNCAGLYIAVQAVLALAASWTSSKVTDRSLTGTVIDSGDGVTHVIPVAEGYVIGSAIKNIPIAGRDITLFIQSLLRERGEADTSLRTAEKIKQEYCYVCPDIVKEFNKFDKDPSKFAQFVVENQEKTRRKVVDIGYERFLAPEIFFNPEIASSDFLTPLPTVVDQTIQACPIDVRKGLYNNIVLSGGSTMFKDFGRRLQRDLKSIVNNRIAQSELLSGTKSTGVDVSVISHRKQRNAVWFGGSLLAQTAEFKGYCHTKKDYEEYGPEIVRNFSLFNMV
# Sequence of UniProt Q08345 (whole entry, looked up): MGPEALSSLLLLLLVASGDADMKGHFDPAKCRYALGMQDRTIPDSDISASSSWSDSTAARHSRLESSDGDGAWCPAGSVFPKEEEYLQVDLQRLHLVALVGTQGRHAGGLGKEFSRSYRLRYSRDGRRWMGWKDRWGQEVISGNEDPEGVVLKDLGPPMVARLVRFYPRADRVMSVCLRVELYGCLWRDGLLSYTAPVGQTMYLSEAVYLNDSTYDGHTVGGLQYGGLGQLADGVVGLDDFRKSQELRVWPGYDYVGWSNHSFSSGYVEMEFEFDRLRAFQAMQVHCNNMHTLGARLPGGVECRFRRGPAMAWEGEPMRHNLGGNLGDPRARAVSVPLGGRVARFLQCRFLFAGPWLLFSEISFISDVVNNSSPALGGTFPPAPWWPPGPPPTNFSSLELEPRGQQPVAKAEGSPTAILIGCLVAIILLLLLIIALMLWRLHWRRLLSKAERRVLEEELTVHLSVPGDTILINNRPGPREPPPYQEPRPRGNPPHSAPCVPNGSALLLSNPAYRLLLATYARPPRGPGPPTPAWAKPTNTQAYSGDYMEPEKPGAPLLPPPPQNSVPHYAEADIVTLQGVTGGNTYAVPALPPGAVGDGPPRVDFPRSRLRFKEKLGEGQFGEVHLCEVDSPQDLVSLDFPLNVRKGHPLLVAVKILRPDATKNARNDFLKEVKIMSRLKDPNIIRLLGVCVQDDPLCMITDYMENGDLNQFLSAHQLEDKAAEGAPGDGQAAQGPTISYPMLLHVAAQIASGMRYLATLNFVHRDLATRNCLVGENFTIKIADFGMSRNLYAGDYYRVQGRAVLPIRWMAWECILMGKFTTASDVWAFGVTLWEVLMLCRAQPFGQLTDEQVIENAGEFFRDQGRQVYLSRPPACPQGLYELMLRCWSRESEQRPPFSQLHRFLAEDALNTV
# Sequence of UniProt P51787 (whole entry, looked up): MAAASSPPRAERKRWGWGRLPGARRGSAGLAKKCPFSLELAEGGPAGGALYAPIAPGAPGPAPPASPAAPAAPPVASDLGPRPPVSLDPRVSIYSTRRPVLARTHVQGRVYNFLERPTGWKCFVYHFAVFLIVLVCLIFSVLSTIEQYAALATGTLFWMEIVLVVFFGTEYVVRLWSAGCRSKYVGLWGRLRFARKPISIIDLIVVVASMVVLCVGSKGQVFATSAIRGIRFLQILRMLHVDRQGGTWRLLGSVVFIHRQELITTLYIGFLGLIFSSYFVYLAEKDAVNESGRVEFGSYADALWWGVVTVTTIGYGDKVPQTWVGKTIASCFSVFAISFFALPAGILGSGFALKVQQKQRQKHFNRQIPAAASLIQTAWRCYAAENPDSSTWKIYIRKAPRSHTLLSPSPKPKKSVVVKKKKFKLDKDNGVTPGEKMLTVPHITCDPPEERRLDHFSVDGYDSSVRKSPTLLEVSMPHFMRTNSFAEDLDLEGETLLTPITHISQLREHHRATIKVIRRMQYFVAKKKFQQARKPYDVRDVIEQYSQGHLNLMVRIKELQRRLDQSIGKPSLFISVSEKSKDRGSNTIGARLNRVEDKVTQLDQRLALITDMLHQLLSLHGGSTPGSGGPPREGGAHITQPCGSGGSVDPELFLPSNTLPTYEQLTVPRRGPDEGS
# Sequence of UniProt P42338 (whole entry, unmodified, looked up): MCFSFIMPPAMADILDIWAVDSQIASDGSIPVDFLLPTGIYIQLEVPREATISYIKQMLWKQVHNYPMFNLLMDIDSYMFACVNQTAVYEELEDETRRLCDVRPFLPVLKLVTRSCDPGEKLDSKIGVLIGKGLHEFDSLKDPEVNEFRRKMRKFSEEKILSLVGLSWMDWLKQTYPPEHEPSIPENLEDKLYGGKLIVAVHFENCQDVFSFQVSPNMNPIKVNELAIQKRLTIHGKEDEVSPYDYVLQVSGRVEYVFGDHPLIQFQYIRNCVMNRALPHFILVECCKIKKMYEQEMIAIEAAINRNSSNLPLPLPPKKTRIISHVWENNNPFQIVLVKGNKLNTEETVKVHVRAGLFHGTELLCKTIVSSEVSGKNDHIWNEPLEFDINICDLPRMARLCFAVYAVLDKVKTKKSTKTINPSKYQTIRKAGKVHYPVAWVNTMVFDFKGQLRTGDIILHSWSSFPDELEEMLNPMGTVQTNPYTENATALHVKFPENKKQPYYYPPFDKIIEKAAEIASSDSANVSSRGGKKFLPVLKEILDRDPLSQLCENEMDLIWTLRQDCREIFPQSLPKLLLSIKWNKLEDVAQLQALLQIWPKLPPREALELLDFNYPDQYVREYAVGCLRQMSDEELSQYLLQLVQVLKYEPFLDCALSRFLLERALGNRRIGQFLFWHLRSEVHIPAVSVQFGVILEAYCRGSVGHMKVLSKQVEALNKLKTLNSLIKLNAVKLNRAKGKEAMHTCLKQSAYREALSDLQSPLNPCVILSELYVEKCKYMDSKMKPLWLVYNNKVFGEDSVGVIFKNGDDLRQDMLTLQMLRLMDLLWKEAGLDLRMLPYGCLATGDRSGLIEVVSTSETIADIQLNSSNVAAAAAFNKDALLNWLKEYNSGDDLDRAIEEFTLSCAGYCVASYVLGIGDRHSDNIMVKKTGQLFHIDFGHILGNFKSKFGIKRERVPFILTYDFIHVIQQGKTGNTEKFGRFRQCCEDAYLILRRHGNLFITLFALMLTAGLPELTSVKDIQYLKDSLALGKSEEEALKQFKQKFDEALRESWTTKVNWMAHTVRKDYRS
# Sequence of UniProt P00915 (whole entry, looked up): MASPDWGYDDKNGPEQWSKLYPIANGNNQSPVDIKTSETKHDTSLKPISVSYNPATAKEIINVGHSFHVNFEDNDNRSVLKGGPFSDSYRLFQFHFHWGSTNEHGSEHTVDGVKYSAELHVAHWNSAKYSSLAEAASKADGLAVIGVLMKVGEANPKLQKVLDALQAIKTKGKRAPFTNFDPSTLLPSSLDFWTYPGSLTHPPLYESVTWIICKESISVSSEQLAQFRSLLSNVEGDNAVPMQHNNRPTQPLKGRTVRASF
# Sequence of UniProt P32381 (whole entry, looked up): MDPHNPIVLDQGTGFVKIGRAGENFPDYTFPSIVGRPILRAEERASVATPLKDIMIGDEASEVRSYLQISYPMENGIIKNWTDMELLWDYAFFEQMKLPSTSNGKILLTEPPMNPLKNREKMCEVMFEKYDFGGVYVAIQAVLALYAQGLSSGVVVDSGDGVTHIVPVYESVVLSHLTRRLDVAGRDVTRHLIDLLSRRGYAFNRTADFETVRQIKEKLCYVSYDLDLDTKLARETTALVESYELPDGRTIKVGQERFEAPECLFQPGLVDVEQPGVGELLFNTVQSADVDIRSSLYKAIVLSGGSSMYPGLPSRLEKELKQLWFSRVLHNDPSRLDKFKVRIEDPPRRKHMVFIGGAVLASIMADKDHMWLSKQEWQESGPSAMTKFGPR
# Sequence of UniProt P14416 (whole entry, looked up): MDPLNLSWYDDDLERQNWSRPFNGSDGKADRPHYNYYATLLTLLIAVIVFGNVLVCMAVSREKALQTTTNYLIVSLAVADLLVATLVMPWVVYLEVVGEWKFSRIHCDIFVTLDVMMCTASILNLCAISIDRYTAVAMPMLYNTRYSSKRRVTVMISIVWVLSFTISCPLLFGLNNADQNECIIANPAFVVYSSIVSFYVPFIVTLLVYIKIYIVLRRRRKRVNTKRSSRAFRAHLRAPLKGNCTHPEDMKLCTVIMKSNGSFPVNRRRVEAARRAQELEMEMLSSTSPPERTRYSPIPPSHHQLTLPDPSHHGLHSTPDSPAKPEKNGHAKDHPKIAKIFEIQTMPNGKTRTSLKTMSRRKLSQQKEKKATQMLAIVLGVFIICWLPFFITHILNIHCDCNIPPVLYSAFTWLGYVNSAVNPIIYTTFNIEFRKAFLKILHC
Structure (SMILES),tested on,assay,test system,conditions,scale,quantity,result
O=C1NC2(CC2)COc2ncc(F)cc2[C@H]2COCCN2c2ccn3ncc1c3n2,,,"Sprague-Dawley rat, male, blood","oral, 10 mg/kg/day, end of treatment, 4-week repeated-dose toxicity",relative to: leukocytes,neutrophils,22.6 ± 12.3%
CC[C@H](C)[C@H](NC(=O)[C@H](CCCCN)NC(=O)[C@H](CC(N)=O)NC(=O)[C@H](CCCNC(=N)N)NC(=O)[C@H](CCCCN)NC(=O)[C@@H](NC(=O)[C@H](CCCCN)NC(=O)[C@H](C)NC(=O)[C@@H](N)Cc1ccc(O)cc1)[C@@H](C)O)C(=O)N[C@@H](CC(C)C)C(=O)N[C@@H](CCCCN)C(=O)N[C@@H](CC(C)C)C(=O)N[C@@H](CCCCN)C(=O)N[C@@H](Cc1ccccc1)C(=O)N1CCC[C@H]1C(=O)N[C@@H](CCCNC(=N)N)C(=O)O,Mapk1,"enzyme activity, inhibitor, fluorescence",,pH 7.4,,IC50,32.5 µM
N#Cc1c(Cl)ccc2c1C1(CCN(C(=O)c3cnc4[nH]ncc4c3)CC1)C(=O)N2CC(=O)NCC(F)(F)F,"DDR1 (Homo sapiens, UniProt Q08345)",ligand displacement,,,,IC50,0.038 µM
CCN(N=Cc1cnc2ccc(Br)cn12)S(=O)(=O)c1cc([N+](=O)[O-])ccc1C,"PIK3CB (Homo sapiens, UniProt P42338, M783K)","enzyme activity, inhibitor",,,,IC50,0.55 µM
O=S(=O)(N/N=C/c1ccc(OS(=O)(=O)c2ccccc2)cc1)c1ccc(Cl)cc1,"CA1 (Homo sapiens, UniProt P00915)","enzyme activity, inhibitor, absorbance",,,,IC50,0.179 µM
O=C(O)CCn1c(=O)oc2cc(Cl)c(Cl)cc21,"DRD2 (Homo sapiens, UniProt P14416)",antagonist,,median value,,IC50,> 100 µM
CC(C)C[C@H](NC(=O)[C@H](C)NC(=O)[C@@H](N)Cc1ccc(O)cc1)C(=O)N[C@@H](CCC(N)=O)C(=O)N[C@@H](CCC(N)=O)C(=O)N[C@@H](CCCNC(=N)N)C(=O)N[C@@H](CCCNC(=N)N)C(=O)N[C@@H](CC(C)C)C(=O)N[C@@H](CCC(N)=O)C(=O)N[C@@H](Cc1c[nH]cn1)C(=O)N[C@@H](CCCNC(=N)N)C(=O)N[C@@H](CC(C)C)C(=O)N[C@@H](CCCNC(=N)N)C(=O)N[C@@H](CC(C)C)C(=O)N[C@@H](CCCNC(=N)N)C(=O)N[C@@H](C)C(=O)O,Mapk1,"enzyme activity, inhibitor, fluorescence",,pH 7.4,,IC50,21.8 µM
C[C@@H]1COCCN1c1nc(NCc2cccnc2C(F)(F)F)c2cccnc2n1,"Potassium voltage-gated channel subfamily KQT member 1, with KCNE1 (KCNQ1, Homo sapiens, UniProt P51787)",inhibitor,,,,IC50,> 33 µM
Cc1nc(N2CCC(N(C)c3cc(C(=O)NCCN4CCCC4)cnn3)CC2)nc(C)c1CC(C)C,"Cytochrome P450 1A2 (CYP1A2, Homo sapiens, UniProt P05177)","enzyme activity, inhibitor",,,,IC50,> 30 µM
CC(C)C[C@H](NC(=O)[C@H]1O[C@@H]1C(=O)O)C(=O)NCCCCN=C(N)N,"Papain (Carica papaya, UniProt P00784)","enzyme activity, inhibitor",,,,IC50,0.000203 µM
Cc1[nH]c2ccccc2c1CCNC(=O)c1ccccc1F,"ARP2/ARP3 (Saccharomyces cerevisiae, UniProt P32381+P47117)","actin polymerization, pyrenyl-actin",,with: ARP2/ARP3 5 nM,,IC50,12 µM
CC[C@H](C)[C@H](NC(=O)[C@H](CCCCN)NC(=O)[C@H](CC(C)C)NC(=O)[C@@H]1CCCN1C(=O)[C@@H]1CCCN1C(=O)[C@@H](NC(=O)[C@H](CCCCN)NC(=O)[C@H](CCCNC(=N)N)NC(=O)[C@@H](NC(=O)[C@H](CCC(N)=O)NC(=O)[C@H](C)NC(=O)[C@@H](N)Cc1ccc(O)cc1)C(C)C)C(C)C)C(=O)N1CCC[C@H]1C(=O)N[C@H](C(=O)N[C@@H](CO)C(=O)N[C@@H](CCCNC(=N)N)C(=O)O)C(C)C,Mapk1,"enzyme activity, inhibitor, fluorescence",,pH 7.4,,IC50,> 200 µM

# Excerpt of the above:
Structure (SMILES),tested on,assay,test system,conditions,scale,quantity,result
CC[C@H](C)[C@H](NC(=O)[C@H](CCCCN)NC(=O)[C@H](CC(N)=O)NC(=O)[C@H](CCCNC(=N)N)NC(=O)[C@H](CCCCN)NC(=O)[C@@H](NC(=O)[C@H](CCCCN)NC(=O)[C@H](C)NC(=O)[C@@H](N)Cc1ccc(O)cc1)[C@@H](C)O)C(=O)N[C@@H](CC(C)C)C(=O)N[C@@H](CCCCN)C(=O)N[C@@H](CC(C)C)C(=O)N[C@@H](CCCCN)C(=O)N[C@@H](Cc1ccccc1)C(=O)N1CCC[C@H]1C(=O)N[C@@H](CCCNC(=N)N)C(=O)O,Mapk1,"enzyme activity, inhibitor, fluorescence",,pH 7.4,,IC50,32.5 µM
